Measured values gathered from unrelated publications.
Lines come from different studies, so protocols differ. Numbers after ± are the reported error.
GAP50: Glideosome-associated protein 50 (GAP50, Plasmodium falciparum, UniProt Q8I2X3)
Sequence of UniProt Q8I2X3 (whole entry, looked up): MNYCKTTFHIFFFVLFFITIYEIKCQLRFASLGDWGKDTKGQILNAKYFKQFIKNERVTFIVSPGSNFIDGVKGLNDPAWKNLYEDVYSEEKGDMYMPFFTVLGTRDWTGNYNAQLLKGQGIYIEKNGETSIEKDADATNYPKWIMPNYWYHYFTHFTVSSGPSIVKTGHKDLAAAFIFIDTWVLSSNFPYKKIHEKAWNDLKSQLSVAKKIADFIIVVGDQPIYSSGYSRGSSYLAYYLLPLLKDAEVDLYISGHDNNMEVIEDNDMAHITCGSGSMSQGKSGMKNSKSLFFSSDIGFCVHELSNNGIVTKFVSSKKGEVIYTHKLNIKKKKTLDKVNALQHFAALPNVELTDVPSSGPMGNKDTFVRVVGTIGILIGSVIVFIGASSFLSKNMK
CDK9: Cyclin-dependent kinase 9 (CDK9, Homo sapiens, UniProt P50750)
Sequence of UniProt P50750 (whole entry, looked up): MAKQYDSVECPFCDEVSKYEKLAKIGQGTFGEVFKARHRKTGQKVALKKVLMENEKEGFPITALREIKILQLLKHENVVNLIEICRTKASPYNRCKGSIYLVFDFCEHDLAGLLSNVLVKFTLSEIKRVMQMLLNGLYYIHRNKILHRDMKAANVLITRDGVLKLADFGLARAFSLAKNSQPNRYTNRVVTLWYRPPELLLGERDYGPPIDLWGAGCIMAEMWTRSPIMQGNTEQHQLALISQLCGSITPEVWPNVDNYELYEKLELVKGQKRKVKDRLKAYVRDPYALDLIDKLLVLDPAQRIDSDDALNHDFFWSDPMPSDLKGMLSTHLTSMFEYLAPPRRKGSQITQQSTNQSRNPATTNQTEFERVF
Kir3.1/Kir3.2: Kir3.1/Kir3.2 (Homo sapiens, UniProt P48051+P48549)
Sequence of UniProt P48549 (whole entry, looked up): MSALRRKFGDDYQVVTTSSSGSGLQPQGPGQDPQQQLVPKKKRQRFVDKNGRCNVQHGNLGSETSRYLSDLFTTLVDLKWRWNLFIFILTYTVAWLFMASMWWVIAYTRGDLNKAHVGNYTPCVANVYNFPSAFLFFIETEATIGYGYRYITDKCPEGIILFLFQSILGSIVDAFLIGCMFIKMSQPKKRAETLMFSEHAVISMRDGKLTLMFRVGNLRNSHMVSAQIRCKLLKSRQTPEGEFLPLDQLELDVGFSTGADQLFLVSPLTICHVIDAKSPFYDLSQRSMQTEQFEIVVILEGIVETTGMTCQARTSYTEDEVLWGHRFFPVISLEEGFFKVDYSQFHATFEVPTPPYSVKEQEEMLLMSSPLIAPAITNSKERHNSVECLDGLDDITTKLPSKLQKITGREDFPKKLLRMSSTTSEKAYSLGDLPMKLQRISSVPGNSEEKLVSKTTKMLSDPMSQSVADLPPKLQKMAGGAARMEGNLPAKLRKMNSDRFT
Sequence of UniProt P48051 (whole entry, looked up): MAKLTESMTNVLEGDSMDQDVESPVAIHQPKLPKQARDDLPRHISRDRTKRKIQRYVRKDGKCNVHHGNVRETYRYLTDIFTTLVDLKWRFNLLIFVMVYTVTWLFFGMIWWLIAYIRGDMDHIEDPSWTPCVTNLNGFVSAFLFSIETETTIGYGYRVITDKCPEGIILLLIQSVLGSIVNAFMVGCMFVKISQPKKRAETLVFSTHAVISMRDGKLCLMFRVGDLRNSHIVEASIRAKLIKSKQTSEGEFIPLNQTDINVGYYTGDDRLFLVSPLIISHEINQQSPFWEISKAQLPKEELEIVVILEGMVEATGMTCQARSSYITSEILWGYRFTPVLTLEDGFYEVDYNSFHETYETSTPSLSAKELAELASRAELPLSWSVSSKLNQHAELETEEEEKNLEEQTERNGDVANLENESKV
USP51 ZnF-UBD domain: Ubiquitin carboxyl-terminal hydrolase 51, ZnF-UBD domain (USP51, Homo sapiens, UniProt Q70EK9)
Sequence of UniProt Q70EK9 (whole entry, looked up): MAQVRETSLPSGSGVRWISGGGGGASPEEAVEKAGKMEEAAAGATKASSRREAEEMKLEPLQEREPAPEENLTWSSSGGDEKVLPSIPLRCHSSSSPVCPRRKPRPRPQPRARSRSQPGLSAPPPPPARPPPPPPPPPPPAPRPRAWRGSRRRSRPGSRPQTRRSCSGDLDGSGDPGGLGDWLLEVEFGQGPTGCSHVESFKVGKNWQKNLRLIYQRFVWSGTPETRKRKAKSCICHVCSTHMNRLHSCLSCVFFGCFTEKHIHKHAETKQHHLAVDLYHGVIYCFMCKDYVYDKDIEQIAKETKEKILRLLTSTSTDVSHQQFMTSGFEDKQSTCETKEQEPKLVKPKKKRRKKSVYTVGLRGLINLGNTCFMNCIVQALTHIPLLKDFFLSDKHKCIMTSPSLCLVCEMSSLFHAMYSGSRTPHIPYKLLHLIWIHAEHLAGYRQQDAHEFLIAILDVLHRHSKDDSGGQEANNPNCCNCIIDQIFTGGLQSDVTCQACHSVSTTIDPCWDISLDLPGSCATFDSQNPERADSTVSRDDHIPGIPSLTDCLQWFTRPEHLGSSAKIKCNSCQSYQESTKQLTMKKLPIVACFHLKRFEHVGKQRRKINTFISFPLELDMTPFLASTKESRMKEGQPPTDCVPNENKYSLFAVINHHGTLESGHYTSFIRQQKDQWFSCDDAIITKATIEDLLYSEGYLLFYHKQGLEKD
CAMKK2: Calcium/calmodulin-dependent protein kinase kinase 2 (CAMKK2, Homo sapiens, UniProt Q96RR4)
Sequence of UniProt Q96RR4 (whole entry, looked up): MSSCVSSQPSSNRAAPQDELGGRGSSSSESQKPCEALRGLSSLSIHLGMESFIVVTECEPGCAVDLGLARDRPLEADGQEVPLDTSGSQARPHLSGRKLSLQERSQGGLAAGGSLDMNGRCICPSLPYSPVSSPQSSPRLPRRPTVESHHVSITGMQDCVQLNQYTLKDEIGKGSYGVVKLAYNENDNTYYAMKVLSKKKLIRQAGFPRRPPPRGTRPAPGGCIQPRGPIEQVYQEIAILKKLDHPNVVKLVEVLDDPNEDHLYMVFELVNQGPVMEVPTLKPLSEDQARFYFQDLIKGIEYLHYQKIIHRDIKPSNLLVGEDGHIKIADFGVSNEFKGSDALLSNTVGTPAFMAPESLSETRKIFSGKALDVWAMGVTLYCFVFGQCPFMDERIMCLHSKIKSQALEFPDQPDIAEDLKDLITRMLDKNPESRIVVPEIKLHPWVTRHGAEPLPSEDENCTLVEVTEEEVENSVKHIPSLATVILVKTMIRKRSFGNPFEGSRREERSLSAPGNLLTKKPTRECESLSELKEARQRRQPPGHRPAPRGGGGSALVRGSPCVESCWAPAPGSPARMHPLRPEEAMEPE
Sequence of UniProt P15407 (whole entry, looked up): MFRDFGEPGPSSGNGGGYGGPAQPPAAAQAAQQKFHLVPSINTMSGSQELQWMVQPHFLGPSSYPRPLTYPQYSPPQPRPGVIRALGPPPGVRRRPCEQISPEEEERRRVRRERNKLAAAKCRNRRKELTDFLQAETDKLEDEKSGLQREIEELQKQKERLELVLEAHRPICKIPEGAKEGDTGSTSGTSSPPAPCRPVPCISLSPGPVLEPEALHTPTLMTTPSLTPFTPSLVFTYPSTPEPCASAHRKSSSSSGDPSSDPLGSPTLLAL
Sequence of UniProt P34995 (whole entry, unmodified, looked up): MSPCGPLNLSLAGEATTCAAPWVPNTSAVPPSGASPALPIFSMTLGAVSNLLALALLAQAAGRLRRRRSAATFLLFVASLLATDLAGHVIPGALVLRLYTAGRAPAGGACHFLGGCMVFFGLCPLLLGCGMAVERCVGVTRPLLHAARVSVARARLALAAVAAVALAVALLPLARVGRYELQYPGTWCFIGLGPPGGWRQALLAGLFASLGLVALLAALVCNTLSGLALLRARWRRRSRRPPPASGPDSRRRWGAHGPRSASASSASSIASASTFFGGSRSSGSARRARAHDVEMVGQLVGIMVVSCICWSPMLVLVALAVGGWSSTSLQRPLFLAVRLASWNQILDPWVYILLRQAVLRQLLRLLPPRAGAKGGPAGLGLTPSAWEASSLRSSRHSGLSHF
Sequence of UniProt P05412 (whole entry, looked up): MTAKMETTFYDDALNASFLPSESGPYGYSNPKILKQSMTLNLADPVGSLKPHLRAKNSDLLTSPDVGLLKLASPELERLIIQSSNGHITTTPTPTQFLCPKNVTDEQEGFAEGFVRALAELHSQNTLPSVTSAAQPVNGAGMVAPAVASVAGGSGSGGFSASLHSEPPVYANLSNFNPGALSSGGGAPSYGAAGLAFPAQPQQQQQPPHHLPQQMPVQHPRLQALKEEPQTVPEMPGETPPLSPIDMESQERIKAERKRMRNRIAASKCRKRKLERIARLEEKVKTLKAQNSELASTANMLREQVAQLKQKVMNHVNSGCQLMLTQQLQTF
Sequence of UniProt P10636 (whole entry, looked up): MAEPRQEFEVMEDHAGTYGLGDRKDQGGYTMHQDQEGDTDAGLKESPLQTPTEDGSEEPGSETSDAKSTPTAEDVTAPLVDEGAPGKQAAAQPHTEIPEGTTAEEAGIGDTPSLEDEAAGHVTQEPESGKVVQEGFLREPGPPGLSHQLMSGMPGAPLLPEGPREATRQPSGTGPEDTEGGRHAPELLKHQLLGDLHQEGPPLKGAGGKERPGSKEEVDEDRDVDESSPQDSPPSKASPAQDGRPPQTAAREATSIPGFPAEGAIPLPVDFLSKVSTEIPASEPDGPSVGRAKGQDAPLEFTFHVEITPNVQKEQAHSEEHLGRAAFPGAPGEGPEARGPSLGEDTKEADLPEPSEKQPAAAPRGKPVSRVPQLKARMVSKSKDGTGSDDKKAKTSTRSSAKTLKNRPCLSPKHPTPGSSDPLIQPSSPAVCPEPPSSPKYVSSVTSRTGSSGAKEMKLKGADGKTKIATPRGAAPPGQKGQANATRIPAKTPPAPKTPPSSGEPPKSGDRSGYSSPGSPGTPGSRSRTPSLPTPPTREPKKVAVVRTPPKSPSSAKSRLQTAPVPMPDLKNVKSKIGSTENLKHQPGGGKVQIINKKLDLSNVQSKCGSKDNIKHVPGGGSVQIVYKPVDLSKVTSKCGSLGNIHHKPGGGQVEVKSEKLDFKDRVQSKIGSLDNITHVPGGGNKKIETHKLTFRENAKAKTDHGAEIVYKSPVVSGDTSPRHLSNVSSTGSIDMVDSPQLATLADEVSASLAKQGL

The AC50 of COc1ccc2nc(/C=C/c3ccc(N(C)C)cc3)sc2c1 is reported as > 10 µM (Microtubule-associated protein tau, fibrils (MAPT, Homo sapiens, UniProt P10636); binding; synthetic 2N4R tau filaments 1 µM; together with: thioflavin S).
With CC(C)Cn1c(=O)n(C)c(=O)c2c(-c3cncn3C)n(Cc3cccc4ccccc34)nc21 the Kd was 7.56 µM (GAP50; binding, surface plasmon resonance; 1:1 binding model).
CC(C)(C)c1cnc(CSc2cnc(NC(=O)C3CCN(C(=O)CCOCCN4Cc5cc6c(cc5C4)C(=O)N(C4CCC(=O)NC4=O)C6=O)CC3)s2)o1 (stereo not drawn) gave a DC50 of 0.0103 ± 0.0052 µM (CDK9; degrader, Western blot; TC-71).
With NC(=O)c1cnc2ccc(S(=O)(=O)c3ccccc3)cc2c1Nc1ccc(O)cc1 the Kd was 23.7 µM (GAP50; binding, surface plasmon resonance; 1:1 binding model).
With O=C(COP(=O)(O)O)[C@@H](O)[C@H](O)[C@H](O)COP(=O)(O)O the AC50 was 0.0575 ± 0.0227 µM (Pyruvate kinase PKM (PKM, Homo sapiens, UniProt P14618); enzyme activity, activator; RKO cell lysate; together with: 0.2 mM PEP, 2 mM ADP).
For CC(C)(C)c1cnc(CSc2cnc(NC(=O)C3CCN(C(=O)CCCCCCCN4Cc5cc6c(cc5C4)C(=O)N(C4CCC(=O)NC4=O)C6=O)CC3)s2)o1 (stereo not drawn), the DC50 was 0.0035 ± 0.0007 µM (CDK9; degrader, Western blot; TC-71).
The EC50 of O=C(COc1ccc(C(F)(F)F)cc1C(F)(F)F)Nc1cc(C2CC2)nn1C1CCC(F)(F)CC1 is reported as 1.51 µM (Kir3.1/Kir3.2; activator, thallium flux; HEK293).
With O=C(O)CCc1ccc2c(c1)OCO2 the Kd was > 1000 µM (USP51 ZnF-UBD domain).
The IC50 of CC[C@@H]1[C@H](F)C(=O)N[C@@H]1COc1nccc2cc(C(N)=O)c(OC)cc12 is reported as 3.8 µM (CAMKK2; ATP-site probe binding, inhibitor, ActivX ATP probe profiling; THP-1 cell lysate; probe site Lys1).
The Kd of O=C(O)CN1Cc2ccccc2C1=O is reported as > 1000 µM (USP51 ZnF-UBD domain).
The EC50 of O=C(COc1ccc(Cl)cc1Cl)Nc1cc(C2CCC2)nn1C1CCC(F)(F)CC1 is reported as 0.45 µM (Kir3.1/Kir3.2; activator, thallium flux; HEK293).
For O=C(O)CCn1cccn1, the Kd was > 1000 µM (USP51 ZnF-UBD domain).
CN1CCN(c2ccc(Nc3ncc4cc(C#N)c(=O)n(C5CCCC5)c4n3)cc2)CC1 gave an IC50 of 1.53 µM (CAMKK2).
C=C1CCC2CC1C2(C)C (stereo not drawn) gave a Ki of > 50 µM (uncharacterized protein (Bradysia odoriphaga, UniProt A0A2S0X9G4); binding, competitive fluorescence displacement).
CCCCC[C@H](O)/C=C/[C@H]1[C@H](O)CC(=O)[C@@H]1C/C=C\CCCC(=O)O gave an EC50 of 0.00407 µM (Prostaglandin E2 receptor EP1 subtype (PTGER1, Homo sapiens, UniProt P34995, I352A); IP1 accumulation, agonist; AD293; EP1 I352A mutant).
For Oc1cccc(C(Nc2nccs2)c2ccc3cccnc3c2O)c1 (stereo not drawn), the Kd was 5.77 µM (GAP50; binding, surface plasmon resonance; 1:1 binding model).
C=CC(C)(O)CCC=C(C)C (stereo not drawn) gave an IC50 of > 50 µM (uncharacterized protein (Bradysia odoriphaga, UniProt A0A2S0X9G4); binding, competitive fluorescence displacement; pH 7.4).
The IC50 of CCCCCC/C=C\CCCCCCCCCCCCCCC is reported as 33.8 µM (uncharacterized protein (Drosophila suzukii, UniProt A0AB39ZGK5); binding, bis-ANS competition fluorescence; pH 7.4, together with: bis-ANS).
O=C(C=Cc1cc(C(=O)c2ccc(OC3CCCC3)cc2O)ccc1OCc1ccc2c(O)noc2c1)NCCOCCOCCOCCOCCOCCOCCOCCNc1cccc2c1C(=O)N(C1CCC(=O)NC1=O)C2=O (stereo not drawn) gave a DC50 of 2.3 µM (JUN/FOSL1 (Homo sapiens, UniProt P05412+P15407); degrader, western blot; UMSCC1 cells).
CCc1cc(NC(=O)COc2cccc(Cl)c2Cl)n(C2CCC(F)(F)CC2)n1 gave an EC50 of 0.068 µM (Kir3.1/Kir3.2; activator, thallium flux; HEK293).
O=C(O)CSc1nnc(NC(=O)COc2ccccc2)s1 has a Kd of > 1000 µM (USP51 ZnF-UBD domain).

Some of these lines once more:
The Kd of O=C(O)CN1Cc2ccccc2C1=O is reported as > 1000 µM (USP51 ZnF-UBD domain).
With NC(=O)c1cnc2ccc(S(=O)(=O)c3ccccc3)cc2c1Nc1ccc(O)cc1 the Kd was 23.7 µM (GAP50; binding, surface plasmon resonance; 1:1 binding model).
